{"data": "Measurements of several laboratories", "DPP9": "Dipeptidyl peptidase 9 (DPP9, Homo sapiens, UniProt Q86TI2)", "CELA1": "Chymotrypsin-like elastase family member 1 (CELA1, Sus scrofa, UniProt P00772)", "CARM1": "Histone-arginine methyltransferase CARM1 (CARM1, Homo sapiens, UniProt Q86X55)", "note": "Protocols differ between the studies behind these lines. ± marks the error that the study gave.", "UniProt Q86TI2, sequence (whole entry, looked up)": "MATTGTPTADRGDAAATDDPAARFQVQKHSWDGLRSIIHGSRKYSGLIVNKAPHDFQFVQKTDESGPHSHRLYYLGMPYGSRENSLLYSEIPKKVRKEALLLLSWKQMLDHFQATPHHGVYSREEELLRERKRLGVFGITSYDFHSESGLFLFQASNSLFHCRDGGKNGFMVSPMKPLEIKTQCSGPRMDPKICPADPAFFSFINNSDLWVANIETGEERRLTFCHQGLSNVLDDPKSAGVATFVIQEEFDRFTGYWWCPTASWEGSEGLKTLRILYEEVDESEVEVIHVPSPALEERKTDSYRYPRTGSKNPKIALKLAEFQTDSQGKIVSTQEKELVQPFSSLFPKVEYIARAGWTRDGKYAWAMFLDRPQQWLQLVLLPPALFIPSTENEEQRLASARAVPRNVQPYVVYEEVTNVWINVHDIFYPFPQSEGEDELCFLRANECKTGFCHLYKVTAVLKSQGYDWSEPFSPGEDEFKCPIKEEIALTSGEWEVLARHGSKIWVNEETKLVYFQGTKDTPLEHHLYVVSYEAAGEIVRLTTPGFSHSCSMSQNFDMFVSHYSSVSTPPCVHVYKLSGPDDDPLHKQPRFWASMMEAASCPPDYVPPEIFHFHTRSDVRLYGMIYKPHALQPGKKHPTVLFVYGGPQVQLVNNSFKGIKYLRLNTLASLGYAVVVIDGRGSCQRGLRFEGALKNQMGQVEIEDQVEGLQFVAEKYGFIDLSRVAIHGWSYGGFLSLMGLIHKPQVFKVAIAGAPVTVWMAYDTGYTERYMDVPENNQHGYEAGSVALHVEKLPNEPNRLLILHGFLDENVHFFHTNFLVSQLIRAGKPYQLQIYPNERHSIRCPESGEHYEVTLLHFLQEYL", "UniProt Q86X55, sequence (whole entry, looked up)": "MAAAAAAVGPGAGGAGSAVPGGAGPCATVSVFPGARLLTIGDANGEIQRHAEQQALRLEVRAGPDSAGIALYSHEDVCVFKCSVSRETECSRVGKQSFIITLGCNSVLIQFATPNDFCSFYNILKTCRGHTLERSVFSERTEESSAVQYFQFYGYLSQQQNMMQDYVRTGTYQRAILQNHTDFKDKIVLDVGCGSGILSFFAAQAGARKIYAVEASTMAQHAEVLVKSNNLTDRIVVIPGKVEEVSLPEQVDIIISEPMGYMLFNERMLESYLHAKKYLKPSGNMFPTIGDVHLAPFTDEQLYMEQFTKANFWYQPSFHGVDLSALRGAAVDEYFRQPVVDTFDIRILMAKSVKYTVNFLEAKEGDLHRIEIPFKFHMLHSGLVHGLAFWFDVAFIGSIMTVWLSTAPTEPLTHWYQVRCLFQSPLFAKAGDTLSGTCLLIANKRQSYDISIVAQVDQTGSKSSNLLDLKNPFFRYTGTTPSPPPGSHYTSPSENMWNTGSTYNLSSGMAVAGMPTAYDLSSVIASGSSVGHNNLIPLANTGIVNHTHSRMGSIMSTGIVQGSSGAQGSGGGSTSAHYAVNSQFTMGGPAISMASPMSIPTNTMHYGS", "UniProt P00772, sequence (whole entry, looked up)": "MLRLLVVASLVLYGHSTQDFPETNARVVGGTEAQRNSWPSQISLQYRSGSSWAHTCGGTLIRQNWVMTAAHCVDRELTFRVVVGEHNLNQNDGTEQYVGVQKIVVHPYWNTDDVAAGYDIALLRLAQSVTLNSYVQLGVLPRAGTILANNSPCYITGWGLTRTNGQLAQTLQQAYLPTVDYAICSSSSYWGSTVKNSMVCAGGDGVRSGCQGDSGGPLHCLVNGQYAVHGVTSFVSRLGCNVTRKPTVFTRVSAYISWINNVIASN", "UniProt P18031, sequence (whole entry, looked up)": "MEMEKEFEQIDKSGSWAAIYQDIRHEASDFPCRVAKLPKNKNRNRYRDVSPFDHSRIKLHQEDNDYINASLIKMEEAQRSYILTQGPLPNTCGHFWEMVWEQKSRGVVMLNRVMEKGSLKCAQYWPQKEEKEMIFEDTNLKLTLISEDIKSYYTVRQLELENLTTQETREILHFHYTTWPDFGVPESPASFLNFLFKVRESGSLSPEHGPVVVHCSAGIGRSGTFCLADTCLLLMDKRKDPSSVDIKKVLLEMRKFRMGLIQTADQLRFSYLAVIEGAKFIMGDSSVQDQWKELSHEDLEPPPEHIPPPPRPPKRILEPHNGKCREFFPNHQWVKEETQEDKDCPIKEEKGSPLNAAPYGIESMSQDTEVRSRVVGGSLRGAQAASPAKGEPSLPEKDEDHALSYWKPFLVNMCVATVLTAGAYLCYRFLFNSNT", "UniProt P16519, sequence (whole entry, looked up)": "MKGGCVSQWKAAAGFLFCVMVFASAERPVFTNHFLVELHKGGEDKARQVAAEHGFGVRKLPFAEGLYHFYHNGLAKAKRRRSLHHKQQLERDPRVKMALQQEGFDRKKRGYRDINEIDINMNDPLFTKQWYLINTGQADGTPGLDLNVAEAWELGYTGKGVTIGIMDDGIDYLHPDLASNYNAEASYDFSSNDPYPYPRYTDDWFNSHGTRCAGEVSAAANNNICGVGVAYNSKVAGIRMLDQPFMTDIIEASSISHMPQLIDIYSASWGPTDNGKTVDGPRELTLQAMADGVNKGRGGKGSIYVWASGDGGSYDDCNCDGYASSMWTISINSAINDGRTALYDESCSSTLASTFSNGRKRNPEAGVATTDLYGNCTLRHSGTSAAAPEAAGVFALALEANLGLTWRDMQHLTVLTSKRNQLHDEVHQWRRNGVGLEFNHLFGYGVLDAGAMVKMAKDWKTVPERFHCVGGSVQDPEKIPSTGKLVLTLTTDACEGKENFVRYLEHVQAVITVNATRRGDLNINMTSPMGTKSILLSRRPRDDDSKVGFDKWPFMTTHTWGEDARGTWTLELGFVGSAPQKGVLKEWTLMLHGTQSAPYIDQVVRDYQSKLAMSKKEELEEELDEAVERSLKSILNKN", "UniProt Q01959, sequence (whole entry, looked up)": "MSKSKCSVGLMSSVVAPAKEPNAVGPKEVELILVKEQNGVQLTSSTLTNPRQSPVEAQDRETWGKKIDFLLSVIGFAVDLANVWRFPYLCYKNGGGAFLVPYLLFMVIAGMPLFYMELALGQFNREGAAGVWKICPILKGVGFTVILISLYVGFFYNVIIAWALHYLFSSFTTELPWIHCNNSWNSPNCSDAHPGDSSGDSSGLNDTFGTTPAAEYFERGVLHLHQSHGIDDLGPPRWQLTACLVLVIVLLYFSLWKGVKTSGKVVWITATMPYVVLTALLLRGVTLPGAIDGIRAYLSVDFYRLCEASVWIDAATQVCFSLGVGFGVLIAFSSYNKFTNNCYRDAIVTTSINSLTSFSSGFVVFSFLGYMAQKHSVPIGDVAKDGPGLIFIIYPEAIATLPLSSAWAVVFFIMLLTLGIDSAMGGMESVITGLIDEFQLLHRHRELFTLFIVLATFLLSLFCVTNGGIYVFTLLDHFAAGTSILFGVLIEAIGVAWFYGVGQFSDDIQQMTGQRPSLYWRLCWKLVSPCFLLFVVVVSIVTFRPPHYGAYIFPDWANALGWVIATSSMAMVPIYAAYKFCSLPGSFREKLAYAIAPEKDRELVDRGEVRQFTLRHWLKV", "UniProt A5K302, sequence (whole entry, looked up)": "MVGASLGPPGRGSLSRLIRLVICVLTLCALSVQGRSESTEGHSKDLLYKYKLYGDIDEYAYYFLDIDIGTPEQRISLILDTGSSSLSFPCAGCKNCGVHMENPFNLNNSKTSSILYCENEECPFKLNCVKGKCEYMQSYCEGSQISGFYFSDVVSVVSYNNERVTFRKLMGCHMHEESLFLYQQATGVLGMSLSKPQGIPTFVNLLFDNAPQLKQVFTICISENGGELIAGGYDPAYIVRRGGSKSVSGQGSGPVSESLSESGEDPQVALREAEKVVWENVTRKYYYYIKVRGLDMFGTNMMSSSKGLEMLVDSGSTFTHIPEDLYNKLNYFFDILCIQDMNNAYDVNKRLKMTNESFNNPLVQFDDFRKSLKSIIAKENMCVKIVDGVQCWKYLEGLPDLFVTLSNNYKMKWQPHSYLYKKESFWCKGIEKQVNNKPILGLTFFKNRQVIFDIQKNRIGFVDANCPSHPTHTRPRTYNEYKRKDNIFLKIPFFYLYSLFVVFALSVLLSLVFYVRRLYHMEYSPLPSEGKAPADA", "UniProt P28222, sequence (whole entry, looked up)": "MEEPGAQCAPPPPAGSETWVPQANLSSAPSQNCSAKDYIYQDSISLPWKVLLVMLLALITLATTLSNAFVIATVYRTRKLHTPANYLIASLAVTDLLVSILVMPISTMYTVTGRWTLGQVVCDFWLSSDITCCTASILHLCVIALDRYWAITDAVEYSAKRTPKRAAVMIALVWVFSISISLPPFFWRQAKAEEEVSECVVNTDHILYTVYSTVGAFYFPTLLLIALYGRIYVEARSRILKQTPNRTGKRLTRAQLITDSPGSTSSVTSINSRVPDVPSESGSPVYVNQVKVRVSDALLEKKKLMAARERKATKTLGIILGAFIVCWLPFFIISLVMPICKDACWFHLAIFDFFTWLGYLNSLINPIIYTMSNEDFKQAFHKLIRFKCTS", "UniProt P30518, sequence (whole entry, looked up)": "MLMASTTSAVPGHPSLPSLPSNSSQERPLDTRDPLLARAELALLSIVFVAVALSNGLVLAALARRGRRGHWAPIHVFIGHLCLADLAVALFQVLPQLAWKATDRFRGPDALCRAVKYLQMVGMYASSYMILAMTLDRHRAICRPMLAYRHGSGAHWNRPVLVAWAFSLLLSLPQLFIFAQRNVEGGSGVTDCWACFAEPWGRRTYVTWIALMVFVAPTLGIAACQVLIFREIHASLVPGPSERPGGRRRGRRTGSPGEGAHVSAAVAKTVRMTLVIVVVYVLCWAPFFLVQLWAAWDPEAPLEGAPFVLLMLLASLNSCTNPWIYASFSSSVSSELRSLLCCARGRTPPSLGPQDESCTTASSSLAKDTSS"}
{"SMILES": "CCC1(CC)C(=O)N(c2cccc(C(=O)N3CCN(Cc4ccc(Br)cc4)CC3)c2)C1=O", "target": "DPP9", "assay": "enzyme activity, inhibitor, fluorescence", "Ki [µM]": 0.095}
{"SMILES": "CC(C)Oc1ccc(B(O)O)c(F)n1", "target": "CELA1", "assay": "enzyme activity, inhibitor, absorbance", "Ki [µM]": 382}
{"SMILES": "CC(=O)N[C@@H](C)C(=O)N1CCC[C@H]1C(=O)N[C@@H](CCCNC(=N)NCCC[C@H]1O[C@@H](n2cnc3c(N)ncnc32)[C@H](O)[C@@H]1O)C(=O)N[C@@H](CCCCN)C(=O)N[C@@H](CCC(N)=O)C(=O)N[C@@H](CC(C)C)C(N)=O (relative stereo)", "target": "CARM1", "assay": "enzyme activity, inhibitor", "Ki [µM]": 0.036}
{"SMILES": "CCC1(CC)CC(=O)N(C2c3cc(C(=O)NC4c5ccccc5CC4O)ccc3OC2(C)COC)C(=N)N1 (stereo not shown)", "target": "Plasmepsin V (PMV, Plasmodium vivax, UniProt A5K302)", "assay": "peptide cleavage, inhibitor", "Ki [µM]": "23.1 ± 6.83"}
{"SMILES": "O=S(=O)(O)O/N=C(/CCc1ccccc1)S[C@@H]1O[C@H](CO)[C@@H](O)[C@H](O)[C@H]1O", "target": "Tyrosine-protein phosphatase non-receptor type 1 (PTPN1, Homo sapiens, UniProt P18031)", "assay": "enzyme activity, inhibitor", "Ki [µM]": 7.02}
{"SMILES": "CC(=O)N[C@@H](CCCCN)C(=O)N[C@@H](C)C(=O)N1CCC[C@H]1C(=O)N[C@@H](CCCNC(=N)NCCC[C@H]1O[C@@H](n2cnc3c(N)ncnc32)[C@H](O)[C@@H]1O)C(=O)N[C@@H](CCCCN)C(=O)N[C@@H](CCC(N)=O)C(=O)N[C@@H](CC(C)C)C(=O)N[C@@H](C)C(N)=O (relative stereo)", "target": "CARM1", "assay": "enzyme activity, inhibitor", "Ki [µM]": 0.137}
{"SMILES": "N#CCC12CC1C(n1cnc3c(NC(C4CCC4)C4CC4)nc(I)nc31)C(O)C2O (stereo not shown)", "target": "Sodium-dependent dopamine transporter (SLC6A3, Homo sapiens, UniProt Q01959)", "assay": "ligand displacement, radioligand", "Ki [µM]": 5.4}
{"SMILES": "Cc1nc(-c2c[nH]c(C(=O)Nc3ncccc3O)c2)cs1", "target": "Trypsin-3 (Homo sapiens, UniProt P35030, H275D)", "assay": "enzyme activity, inhibitor", "setting": "mixed inhibition model", "Ki [µM]": "53.8 ± 0.1"}
{"SMILES": "COC(=O)[C@@]1(C(C)C)C=C(C(=O)Nc2cccc(C(=O)Nc3ccc(Nc4nccc(-c5cccnc5)n4)c(C)c3)c2)C(=O)CC1", "target": "Mitogen-activated protein kinase 8 (MAPK8, Homo sapiens, UniProt P45983)", "assay": "SPR two-step binding model", "setting": "wild-type protein surface", "Ki [µM]": 0.0071}
{"SMILES": "CC1(Cc2ccccc2)C(=O)N(c2cccc(CN3CCN(Cc4ccc(Br)cc4)CC3)c2)C1=O", "target": "DPP9", "assay": "enzyme activity, inhibitor, fluorescence", "Ki [µM]": 0.202}
{"SMILES": "CCCCCCCCCCCC=O", "target": "uncharacterized protein (Spodoptera exigua, UniProt F1CEY0)", "assay": "binding", "setting": "added: 1-NPN", "Ki [µM]": 5.03}
{"SMILES": "CC(C)[C@@H]1NC(=O)[C@H](Cc2ccccc2)NC(=O)[C@H](Cc2ccc(O)cc2)NC(=O)CCSSC[C@@H](C(=O)N2CCC[C@H]2C(=O)N[C@H](CCCNC(=N)N)C(=O)NCC(N)=O)NC(=O)[C@H](CC(N)=O)NC1=O", "target": "Vasopressin V2 receptor (AVPR2, Homo sapiens, UniProt P30518)", "assay": "ligand displacement, radioligand", "setting": "cell membranes", "Ki [µM]": 0.0018}
{"SMILES": "Cn1ccc2c(N3CCN(CCCCOc4ccc5c(c4)NC(=O)CC5)CC3)cccc21", "target": "5-hydroxytryptamine receptor 1B (HTR1B, Homo sapiens, UniProt P28222)", "assay": "ligand displacement, radioligand", "Ki [µM]": 0.23}
{"SMILES": "O=C(/C=C/c1ccc(O)cc1)OC(CO)C(=O)O (stereo not shown)", "target": "Catenin beta-1, armadillo repeat domain (Mus musculus, UniProt Q02248)", "assay": "binding to HD2, inhibitor, ELISA", "setting": "added: His-HD2 with GST-ARD", "Ki [µM]": "6.3 ± 2.7"}
{"SMILES": "CCC1(CC)C(=O)N(c2cc(O)cc(C(=O)N3CCN(Cc4ccc(Br)cc4)CC3)c2)C1=O", "target": "DPP9", "assay": "enzyme activity, inhibitor, fluorescence", "Ki [µM]": 0.0778}
{"SMILES": "CC(=O)N[C@@H](CC(C)C)C(=O)N[C@@H](CC(C)C)C(=O)N[C@@H](CC(C)C)C(=O)N[C@@H](CC(C)C)C(=O)N[C@@H](CCCNC(=N)N)C(=O)N[C@H](C(=O)N[C@@H](CCCCN)C(=O)N[C@@H](CCCNC(=N)N)C(N)=O)C(C)C", "target": "Neuroendocrine convertase 2 (Homo sapiens, UniProt P16519)", "assay": "enzyme activity, inhibitor", "Ki [µM]": 0.59}
{"SMILES": "CCC1(CC)C(=O)N(c2cc(C(=O)OC)cc(C(=O)N3CCN(Cc4ccc(Br)cc4)CC3)c2)C1=O", "target": "DPP9", "assay": "enzyme activity, inhibitor, fluorescence", "Ki [µM]": 0.148}
{"SMILES": "CCC1(CC)CC(=O)N(C2CCOc3ccc(C(=O)NC4CC(C)(C)Oc5ccccc54)cc32)C(=N)N1 (stereo not shown)", "target": "plasmepsin X (Plasmodium knowlesi, UniProt A0A384K9C7)", "assay": "enzyme activity, inhibitor, peptide cleavage", "Ki [µM]": "2.1e-05 ± 4e-06"}
{"SMILES": "OB(O)c1cnn(-c2cc(Cl)ncn2)c1", "target": "CELA1", "assay": "enzyme activity, inhibitor, absorbance", "Ki [µM]": 2880}
{"note": "Some of these lines once more:"}
{"SMILES": "CCC1(CC)C(=O)N(c2cccc(C(=O)N3CCN(Cc4ccc(Br)cc4)CC3)c2)C1=O", "target": "DPP9", "assay": "enzyme activity, inhibitor, fluorescence", "Ki [µM]": 0.095}
{"SMILES": "CC(C)Oc1ccc(B(O)O)c(F)n1", "target": "CELA1", "assay": "enzyme activity, inhibitor, absorbance", "Ki [µM]": 382}
{"SMILES": "CC(=O)N[C@@H](C)C(=O)N1CCC[C@H]1C(=O)N[C@@H](CCCNC(=N)NCCC[C@H]1O[C@@H](n2cnc3c(N)ncnc32)[C@H](O)[C@@H]1O)C(=O)N[C@@H](CCCCN)C(=O)N[C@@H](CCC(N)=O)C(=O)N[C@@H](CC(C)C)C(N)=O (relative stereo)", "target": "CARM1", "assay": "enzyme activity, inhibitor", "Ki [µM]": 0.036}
